Results pooled from the literature.
Parts stem from different laboratories: compare values within a part only. Positions count from the first letter of the parent shown.
Chain of UniProt Q8NG66 (whole entry, looked up): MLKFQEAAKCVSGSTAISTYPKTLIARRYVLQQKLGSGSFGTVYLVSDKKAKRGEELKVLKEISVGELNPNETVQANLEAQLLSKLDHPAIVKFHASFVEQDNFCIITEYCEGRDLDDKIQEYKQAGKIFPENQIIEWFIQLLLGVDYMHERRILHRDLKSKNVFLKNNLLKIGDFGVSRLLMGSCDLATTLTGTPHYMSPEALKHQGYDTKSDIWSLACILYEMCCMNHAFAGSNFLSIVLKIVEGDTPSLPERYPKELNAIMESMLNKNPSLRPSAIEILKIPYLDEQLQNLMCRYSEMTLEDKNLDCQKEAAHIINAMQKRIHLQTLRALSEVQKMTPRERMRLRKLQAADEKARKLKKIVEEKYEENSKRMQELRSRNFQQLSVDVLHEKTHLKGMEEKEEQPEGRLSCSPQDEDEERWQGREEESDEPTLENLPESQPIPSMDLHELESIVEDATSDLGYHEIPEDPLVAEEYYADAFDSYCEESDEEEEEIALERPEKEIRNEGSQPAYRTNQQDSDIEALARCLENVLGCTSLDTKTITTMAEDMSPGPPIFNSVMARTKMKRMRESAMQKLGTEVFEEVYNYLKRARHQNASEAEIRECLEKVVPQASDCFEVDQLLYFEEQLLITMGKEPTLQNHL

Set 1
Target: PABPC1L2, full length, GST fusion (mouse, UniProt A0ABA7IW68)
Technique: RNAcompete
Molecule type: RNA
Medium: in vitro
Tested at: 20 nM
Setting: 7-mer, probes averaged, single round
Reference: mean of 7-mers
Direction: higher = stronger binding
Target sequence (chain): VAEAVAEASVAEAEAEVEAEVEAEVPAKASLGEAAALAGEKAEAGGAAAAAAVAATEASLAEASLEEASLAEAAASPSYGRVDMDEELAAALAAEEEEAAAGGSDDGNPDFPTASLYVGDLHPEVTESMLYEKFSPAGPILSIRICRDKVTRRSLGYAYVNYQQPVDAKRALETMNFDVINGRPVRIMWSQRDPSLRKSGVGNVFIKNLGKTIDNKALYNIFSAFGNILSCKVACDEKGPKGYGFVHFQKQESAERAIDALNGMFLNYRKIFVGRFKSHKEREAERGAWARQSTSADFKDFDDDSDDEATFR
Strand	7-mer Z-score
UCGGGUU	-0.213
GAGGGGA	0.309
UCUCACC	-0.427
GCUUGGA	0.0134
AUUCCAA	-0.0192
GUUCACU	-0.331
UAAGACA	0.196
CGAUCAA	-0.0174

Set 2
Target: Prothrombin, mature alpha-thrombin (F2, Homo sapiens, UniProt P00734)
Technique: aptamer microarray, sandwich
Molecule type: DNA with 2'F-ANA
Medium: in vitro
Tested at: 200 nM
Setting: whole 15-mer aptamer, many near background
With: Cy3 exosite-II aptamer, 400 nM
Direction: higher = stronger binding
Strand: GGTTGGTGTGGTTGG
Modification	mean fluorescence intensity
2'F-ANA at 2 7 9 10 11 12 14	88.7 a.u.
2'F-ANA at 1 7 10 11 13 14 15	48.2 a.u.
2'F-ANA at 1 2 3 5 6 9 10 11 14 15	60.2 a.u.
2'F-ANA at 1 4 6 9 10 11 12 13 15	56 a.u.
2'F-ANA at 2 5 6 7 8 15	77.9 a.u.
2'F-ANA at 1 3 4 6 7 8 13 14 15	67 a.u.
2'F-ANA at 1 2 3 4 5 6 8 14 15	65.3 a.u.
2'F-ANA at 1 2 3 4 7 8 9 14 15	61.7 a.u.

Other studies, line by line
P1: PafA, mature enzyme, eGFP fusion (Elizabethkingia meningoseptica, UniProt Q9KJX5); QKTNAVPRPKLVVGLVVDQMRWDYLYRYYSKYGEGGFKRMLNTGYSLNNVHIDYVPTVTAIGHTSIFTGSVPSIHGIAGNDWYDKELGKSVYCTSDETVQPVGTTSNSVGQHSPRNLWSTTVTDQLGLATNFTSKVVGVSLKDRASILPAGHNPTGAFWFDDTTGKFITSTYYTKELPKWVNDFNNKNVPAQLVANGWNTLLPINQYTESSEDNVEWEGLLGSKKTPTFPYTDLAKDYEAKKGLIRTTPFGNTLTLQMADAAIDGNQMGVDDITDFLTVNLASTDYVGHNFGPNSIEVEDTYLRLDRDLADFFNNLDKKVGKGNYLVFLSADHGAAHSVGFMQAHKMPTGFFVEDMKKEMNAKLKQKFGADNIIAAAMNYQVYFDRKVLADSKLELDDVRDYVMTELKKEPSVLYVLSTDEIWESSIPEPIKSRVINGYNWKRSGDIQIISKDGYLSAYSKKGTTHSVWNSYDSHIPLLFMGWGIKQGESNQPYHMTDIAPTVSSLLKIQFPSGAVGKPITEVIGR
Substance	target	assay	test system	setting	scale	measurement	result
N/C(=N\[N+](=O)[O-])N/N=C\c1ccc(-c2cccc([N+](=O)[O-])c2)o1	NEK11 (Homo sapiens, UniProt Q8NG66)	enzyme activity, inhibitor	–	0.5 µM	reference: control	remaining activity	110%
P1 N379V	tungstate, free oxyanion	microfluidic competitive inhibition	in vitro, cell-free expressed	not given, derived from inhibition constants, unchanged parent 2230 nM	lower = stronger binding	oxyanion analog dissociation constant	1.9 µM

Repeated from above (other studies, line by line):
Substance	target	assay	test system	setting	scale	measurement	result
N/C(=N\[N+](=O)[O-])N/N=C\c1ccc(-c2cccc([N+](=O)[O-])c2)o1	NEK11 (Homo sapiens, UniProt Q8NG66)	enzyme activity, inhibitor	–	0.5 µM	reference: control	remaining activity	110%
P1 N379V	tungstate, free oxyanion	microfluidic competitive inhibition	in vitro, cell-free expressed	not given, derived from inhibition constants, unchanged parent 2230 nM	lower = stronger binding	oxyanion analog dissociation constant	1.9 µM
